Measurements gathered from unrelated publications.
Each numbered part is a random draw from the data of one study; scales do not carry over between parts.

Series 1 — technique: protein binding microarray; molecule type: double-stranded DNA, one strand shown; sample: in vitro; tested at: not given; relative to: not given; reading: higher = stronger binding
Target: Histone acetyltransferase KAT6A, both winged helices, GST fusion (KAT6A, Homo sapiens, UniProt Q92794, residues 1-181)
Notes: 8-mer, flanks averaged, mean of 2 arrays, mostly near background
Construct (chain): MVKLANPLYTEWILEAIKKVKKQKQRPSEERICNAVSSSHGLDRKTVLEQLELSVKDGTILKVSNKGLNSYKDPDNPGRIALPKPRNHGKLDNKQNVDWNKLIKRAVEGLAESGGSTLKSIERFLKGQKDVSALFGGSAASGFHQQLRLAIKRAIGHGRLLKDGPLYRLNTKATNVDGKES
Strand | E-score
GCTTTCGA | -0.00673
AGACACGC | 0.185
GACACCCA | -0.174
AGCAGACA | -0.23
GAACGGTC | 0.115
TGGAGCCA | -0.222
CCAACTCA | -0.205
AAAAGACT | -0.0109
AGTCTACA | -0.137

Series 2 — technique: aptamer microarray, sandwich; molecule type: DNA with 2'F-ANA; sample: in vitro; tested at: 200 nM; together with: Cy3 exosite-II aptamer, 400 nM; reading: higher = stronger binding; strand: GGTTGGTGTGGTTGG
Target: Prothrombin, mature alpha-thrombin (F2, Homo sapiens, UniProt P00734)
Notes: whole 15-mer aptamer, many near background
Modification | mean fluorescence intensity [a.u.]
2'F-ANA at 2 6 8 9 10 12 13 15 | 139
2'F-ANA at 1 2 6 11 13 14 15 | 77.7
2'F-ANA at 1 2 6 8 9 10 11 14 | 51.1
2'F-ANA at 1 2 3 6 7 8 10 11 15 | 66.8
2'F-ANA at 1 5 6 7 9 10 12 13 14 15 | 73.2
2'F-ANA at 1 2 4 5 6 10 11 13 15 | 49.8
2'F-ANA at 1 3 4 5 10 11 12 | 46.8
2'F-ANA at 2 3 4 5 7 8 11 13 | 69.6
2'F-ANA at 4 5 9 10 11 13 | 45
2'F-ANA at 1 3 4 7 11 14 | 78.7
2'F-ANA at 3 4 5 7 8 9 13 15 | 78.5

Series 3 — technique: protein-binding microarray; molecule type: double-stranded DNA, one strand shown; sample: in vitro; tested at: 250 nM; notes: 60-bp whole probe; together with: salmon DNA 0.4 mg/ml; relative to: random background probes; reading: higher = stronger binding; shared flanks, not repeated: GCCTAGCAC … GTCTTGATTCGCTTGACGCTGCTG
Target: Interferon regulatory factor 7, full length, phosphomimetic (IRF7, Homo sapiens, UniProt Q92985, residues 1-503, S101K/S471D/S472D/S475D/S476D/S477D/S483D/S484D/S487D)
UniProt Q92985, sequence (whole entry, unmodified, looked up): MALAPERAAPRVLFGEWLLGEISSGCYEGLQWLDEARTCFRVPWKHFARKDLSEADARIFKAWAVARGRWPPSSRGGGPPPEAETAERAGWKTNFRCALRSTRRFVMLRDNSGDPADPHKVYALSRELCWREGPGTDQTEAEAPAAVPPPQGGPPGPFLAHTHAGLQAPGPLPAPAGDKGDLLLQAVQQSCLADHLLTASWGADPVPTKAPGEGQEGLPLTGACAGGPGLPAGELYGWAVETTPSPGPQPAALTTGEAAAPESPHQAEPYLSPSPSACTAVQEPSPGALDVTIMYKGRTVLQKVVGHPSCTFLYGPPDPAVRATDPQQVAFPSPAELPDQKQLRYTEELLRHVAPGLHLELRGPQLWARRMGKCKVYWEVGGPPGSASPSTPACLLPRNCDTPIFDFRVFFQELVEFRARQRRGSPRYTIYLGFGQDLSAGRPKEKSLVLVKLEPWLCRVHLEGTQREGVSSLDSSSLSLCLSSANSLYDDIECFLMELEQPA
Strand | log fluorescence [z-score]
GATTGGTTGAACATGAACTTGTGCTAG | 0.305
ATAGGACTGGACACTGGGTTAGTGCTA | -0.377
GACGCTATCCTTCTCCTGACGTGCTAG | 0.109
GGCAAAAACATGAACAGACAGTGCTAG | -0.74
GGGTCTTGCAGTATGGAAAGGTGCTAG | 0.0787
GACCGTATCGGTCTCGGGACGTGCTAG | 1.04
TTAGGTATCGGACTGTGTTAGTGCTAG | 0.195
TCTACTTCTGTTTTTGCTTTGTGCTAG | 1.63

Single results of other studies
Substance | target | test | test system | conditions | scale | measurement | result
PhoQ, residues 284 288 289 292 302 303 SLANIV | PhoP, residues 12 14 15 18 19 NMSSL (Escherichia coli, UniProt P23836) | Sort-seq, refers to: YFP reporter | E. coli | PhoQ-PhoP variant library, together with: 10 µM Mg2+ | relative to: high Mg2+ state, higher = stronger signaling | fold induction | 2.89

For quick reference, copied from above (series 1):
Strand | E-score
GCTTTCGA | -0.00673
AGCAGACA | -0.23
